Assay results gathered from unrelated publications.
Every numbered part comes from another study and shows a few of its results, in no order.
Sequence of UniProt Q99720 (whole entry, looked up): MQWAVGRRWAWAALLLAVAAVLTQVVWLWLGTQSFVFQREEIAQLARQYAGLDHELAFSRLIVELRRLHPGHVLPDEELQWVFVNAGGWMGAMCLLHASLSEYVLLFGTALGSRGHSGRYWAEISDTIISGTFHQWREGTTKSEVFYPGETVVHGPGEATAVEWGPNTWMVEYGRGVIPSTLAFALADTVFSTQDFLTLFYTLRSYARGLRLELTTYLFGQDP
Sequence of UniProt O75385 (whole entry, looked up): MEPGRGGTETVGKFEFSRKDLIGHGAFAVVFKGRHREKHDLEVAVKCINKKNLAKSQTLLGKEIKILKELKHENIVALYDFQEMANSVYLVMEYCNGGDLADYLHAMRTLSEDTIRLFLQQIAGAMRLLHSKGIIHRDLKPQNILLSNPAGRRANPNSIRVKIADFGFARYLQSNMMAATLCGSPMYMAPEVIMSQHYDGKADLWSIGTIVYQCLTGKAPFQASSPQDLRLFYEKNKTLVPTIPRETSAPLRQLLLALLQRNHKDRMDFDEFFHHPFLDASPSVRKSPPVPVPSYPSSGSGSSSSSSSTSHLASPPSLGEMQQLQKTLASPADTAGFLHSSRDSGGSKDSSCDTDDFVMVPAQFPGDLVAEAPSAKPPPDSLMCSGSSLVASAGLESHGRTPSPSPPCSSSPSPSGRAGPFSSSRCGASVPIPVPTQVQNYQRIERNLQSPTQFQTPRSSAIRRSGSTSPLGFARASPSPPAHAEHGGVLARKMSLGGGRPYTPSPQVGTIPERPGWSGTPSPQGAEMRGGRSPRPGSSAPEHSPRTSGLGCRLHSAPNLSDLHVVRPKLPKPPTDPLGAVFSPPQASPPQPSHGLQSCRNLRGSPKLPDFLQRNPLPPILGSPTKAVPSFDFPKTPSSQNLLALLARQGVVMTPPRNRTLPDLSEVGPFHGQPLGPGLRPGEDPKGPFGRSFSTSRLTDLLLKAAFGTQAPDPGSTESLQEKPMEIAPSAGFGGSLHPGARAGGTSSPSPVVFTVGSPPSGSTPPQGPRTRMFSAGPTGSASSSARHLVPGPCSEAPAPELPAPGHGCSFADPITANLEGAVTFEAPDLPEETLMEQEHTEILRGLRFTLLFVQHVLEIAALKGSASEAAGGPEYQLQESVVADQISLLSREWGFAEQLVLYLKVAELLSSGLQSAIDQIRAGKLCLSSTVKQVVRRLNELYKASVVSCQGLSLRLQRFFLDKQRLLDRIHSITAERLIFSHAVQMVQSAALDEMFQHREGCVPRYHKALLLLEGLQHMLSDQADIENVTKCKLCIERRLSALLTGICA

Study 1
Target: Ephrin type-A receptor 5 (EPHA5, Homo sapiens, UniProt P54756)
Sequence of UniProt P54756 (whole entry, looked up): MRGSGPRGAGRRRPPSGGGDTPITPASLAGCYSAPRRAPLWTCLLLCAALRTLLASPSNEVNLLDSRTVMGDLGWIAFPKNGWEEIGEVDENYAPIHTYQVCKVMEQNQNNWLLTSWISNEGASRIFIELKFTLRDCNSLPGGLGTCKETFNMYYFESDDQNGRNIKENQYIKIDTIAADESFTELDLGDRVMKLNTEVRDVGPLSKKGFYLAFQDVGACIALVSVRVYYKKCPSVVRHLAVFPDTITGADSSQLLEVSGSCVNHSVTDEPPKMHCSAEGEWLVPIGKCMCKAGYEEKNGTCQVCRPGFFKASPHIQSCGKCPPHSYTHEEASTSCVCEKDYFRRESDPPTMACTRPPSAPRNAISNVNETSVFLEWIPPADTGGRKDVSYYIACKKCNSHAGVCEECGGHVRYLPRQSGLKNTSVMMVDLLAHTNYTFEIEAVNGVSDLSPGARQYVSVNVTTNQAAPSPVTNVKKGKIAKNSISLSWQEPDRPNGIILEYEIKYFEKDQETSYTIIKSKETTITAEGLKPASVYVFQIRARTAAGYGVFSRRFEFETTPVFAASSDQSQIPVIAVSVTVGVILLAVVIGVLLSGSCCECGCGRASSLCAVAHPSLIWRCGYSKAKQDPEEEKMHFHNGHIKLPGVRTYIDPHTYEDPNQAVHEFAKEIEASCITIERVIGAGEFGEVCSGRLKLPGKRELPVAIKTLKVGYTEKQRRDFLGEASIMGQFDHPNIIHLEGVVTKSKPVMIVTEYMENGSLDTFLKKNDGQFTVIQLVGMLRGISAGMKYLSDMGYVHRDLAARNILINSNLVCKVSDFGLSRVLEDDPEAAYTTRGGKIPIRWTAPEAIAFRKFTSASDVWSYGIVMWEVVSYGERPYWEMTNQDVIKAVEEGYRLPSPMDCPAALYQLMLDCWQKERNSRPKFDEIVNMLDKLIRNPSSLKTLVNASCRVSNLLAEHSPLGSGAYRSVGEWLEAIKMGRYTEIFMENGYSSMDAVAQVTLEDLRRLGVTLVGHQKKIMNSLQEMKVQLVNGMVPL
Read-out: enzyme activity
Mode: inhibitor
Concentration: 0.5 µM
Relative to: control
`Nc1ncnc2n[nH]c(Nc3ccc(F)cc3)c12` has a remaining activity of 87%.
The remaining activity of `COc1cc2nccc(Oc3ccc(NC(=S)NC(=O)c4ccccc4C)cc3)c2cc1OC` is reported as 91%.
The remaining activity of `COc1ccc(OC)c2c(=S)c3ccccc3[nH]c12` is reported as 114%.
`O=S(=O)(c1cccc2cnccc12)N1CCCNCC1` gave a remaining activity of 90.5%.
With `Cn1sc(=O)n(Cc2ccccc2)c1=O` the remaining activity was 103%.
The remaining activity of `O=C1NC(=O)C(c2cn(CCCO)c3ncccc23)=C1c1cnccn1` is reported as 99.4%.
`CO[C@H]1C[C@@H]2CC[C@@H](C)[C@@](O)(O2)C(=O)C(=O)N2CCCC[C@H]2C(=O)O[C@H]([C@H](C)C[C@@H]2CC[C@@H](O)[C@H](OC)C2)CC(=O)[C@H](C)/C=C(\C)[C@@H](O)[C@@H](OC)C(=O)[C@H](C)C[C@H](C)/C=C/C=C/C=C/1C` has a remaining activity of 94.7%.
With `Cc1nc(-c2ccccc2)c(-c2ccncc2)o1` the remaining activity was 91.4%.
With `N#CC(C#N)=C(N)/C(C#N)=C/c1ccc(O)cc1` the remaining activity was 94.3%.
`CN(C)c1ccc(C=C2C(=O)Nc3ccccc32)cc1` gave a remaining activity of 109%.
`CC(C)[C@H](CO)Nc1nc(Nc2cc(N)cc(Cl)c2)c2ncn(C(C)C)c2n1` has a remaining activity of 64%.
`Cc1ccc(NC(=O)c2ccc(CN3CCN(C)CC3)cc2)cc1Nc1nc(-c2cccnc2)cs1` gave a remaining activity of 104%.
`O=C(Nc1cccc(Nc2cc(Nc3cccc(C(F)(F)F)c3)ncn2)c1)C1CC1` has a remaining activity of 106%.
`O=c1c2ccccc2[nH]c(=S)n1CCN1CCC(=C(c2ccc(F)cc2)c2ccc(F)cc2)CC1` gave a remaining activity of 112%.
For `COc1cc2ncnc(Nc3ccc(F)c(Cl)c3)c2cc1OCCCN1CCOCC1`, the remaining activity was 95.8%.

Study 2
SMILES: Cc1ccc(NC(=O)c2ccnc(C(F)(F)F)c2)cc1-c1cc(OCCO)nc(N2CCOCC2)c1
Read-out: binding
Concentration: 1 µM
It gave 85% for remaining binding (Serine/threonine-protein kinase ULK1 (ULK1, Homo sapiens, UniProt O75385)).
Serine/threonine-protein kinase DCLK1 (DCLK1, Homo sapiens, UniProt O15075); competition with immobilised ligand — remaining binding: 96%.
It gave 89% for remaining binding (Tyrosine-protein kinase Mer (MERTK, Homo sapiens, UniProt Q12866); competition with immobilised ligand).
It gave 100% for remaining binding (TGF-beta receptor type-2 (TGFBR2, Homo sapiens, UniProt P37173); competition with immobilised ligand).
The remaining binding was 100% (Myosin-IIIb (MYO3B, Homo sapiens, UniProt Q8WXR4); competition with immobilised ligand).
Protein kinase C delta type (PRKCD, Homo sapiens, UniProt Q05655) — remaining binding: 100%.

Study 3
Structure (SMILES): C[C@@H](NC(=O)Nc1cc2[nH]ncc2c(CO)n1)c1ccccc1
Read-out: cell-free assay
Concentration: 10 µM
It gave -1.5% for inhibition (Alpha-2B adrenergic receptor (ADRA2B, Homo sapiens, UniProt P18089)).
It gave -27.5% for inhibition (Sigma non-opioid intracellular receptor 1 (SIGMAR1, Homo sapiens, UniProt Q99720)).
For Muscarinic acetylcholine receptor M2 (CHRM2, Homo sapiens, UniProt P08172): inhibition read -3.22%.
Alpha-2C adrenergic receptor (ADRA2C, Homo sapiens, UniProt P18825) — inhibition: -8.07%.
It gave 35.8% for inhibition (Muscarinic acetylcholine receptor M5 (CHRM5, Homo sapiens, UniProt P08912)).
It gave 1.36% for inhibition (Beta-2 adrenergic receptor (ADRB2, Homo sapiens, UniProt P07550)).
The inhibition was -1% (D(4) dopamine receptor (DRD4, Homo sapiens, UniProt P21917)).
Alpha-2A adrenergic receptor (ADRA2A, Homo sapiens, UniProt P08913) — inhibition: 9.2%.

Study 4
Target: DNA polymerase theta, helicase domain (POLQ, Homo sapiens, UniProt O75417)
Sequence of UniProt O75417 (whole entry, looked up): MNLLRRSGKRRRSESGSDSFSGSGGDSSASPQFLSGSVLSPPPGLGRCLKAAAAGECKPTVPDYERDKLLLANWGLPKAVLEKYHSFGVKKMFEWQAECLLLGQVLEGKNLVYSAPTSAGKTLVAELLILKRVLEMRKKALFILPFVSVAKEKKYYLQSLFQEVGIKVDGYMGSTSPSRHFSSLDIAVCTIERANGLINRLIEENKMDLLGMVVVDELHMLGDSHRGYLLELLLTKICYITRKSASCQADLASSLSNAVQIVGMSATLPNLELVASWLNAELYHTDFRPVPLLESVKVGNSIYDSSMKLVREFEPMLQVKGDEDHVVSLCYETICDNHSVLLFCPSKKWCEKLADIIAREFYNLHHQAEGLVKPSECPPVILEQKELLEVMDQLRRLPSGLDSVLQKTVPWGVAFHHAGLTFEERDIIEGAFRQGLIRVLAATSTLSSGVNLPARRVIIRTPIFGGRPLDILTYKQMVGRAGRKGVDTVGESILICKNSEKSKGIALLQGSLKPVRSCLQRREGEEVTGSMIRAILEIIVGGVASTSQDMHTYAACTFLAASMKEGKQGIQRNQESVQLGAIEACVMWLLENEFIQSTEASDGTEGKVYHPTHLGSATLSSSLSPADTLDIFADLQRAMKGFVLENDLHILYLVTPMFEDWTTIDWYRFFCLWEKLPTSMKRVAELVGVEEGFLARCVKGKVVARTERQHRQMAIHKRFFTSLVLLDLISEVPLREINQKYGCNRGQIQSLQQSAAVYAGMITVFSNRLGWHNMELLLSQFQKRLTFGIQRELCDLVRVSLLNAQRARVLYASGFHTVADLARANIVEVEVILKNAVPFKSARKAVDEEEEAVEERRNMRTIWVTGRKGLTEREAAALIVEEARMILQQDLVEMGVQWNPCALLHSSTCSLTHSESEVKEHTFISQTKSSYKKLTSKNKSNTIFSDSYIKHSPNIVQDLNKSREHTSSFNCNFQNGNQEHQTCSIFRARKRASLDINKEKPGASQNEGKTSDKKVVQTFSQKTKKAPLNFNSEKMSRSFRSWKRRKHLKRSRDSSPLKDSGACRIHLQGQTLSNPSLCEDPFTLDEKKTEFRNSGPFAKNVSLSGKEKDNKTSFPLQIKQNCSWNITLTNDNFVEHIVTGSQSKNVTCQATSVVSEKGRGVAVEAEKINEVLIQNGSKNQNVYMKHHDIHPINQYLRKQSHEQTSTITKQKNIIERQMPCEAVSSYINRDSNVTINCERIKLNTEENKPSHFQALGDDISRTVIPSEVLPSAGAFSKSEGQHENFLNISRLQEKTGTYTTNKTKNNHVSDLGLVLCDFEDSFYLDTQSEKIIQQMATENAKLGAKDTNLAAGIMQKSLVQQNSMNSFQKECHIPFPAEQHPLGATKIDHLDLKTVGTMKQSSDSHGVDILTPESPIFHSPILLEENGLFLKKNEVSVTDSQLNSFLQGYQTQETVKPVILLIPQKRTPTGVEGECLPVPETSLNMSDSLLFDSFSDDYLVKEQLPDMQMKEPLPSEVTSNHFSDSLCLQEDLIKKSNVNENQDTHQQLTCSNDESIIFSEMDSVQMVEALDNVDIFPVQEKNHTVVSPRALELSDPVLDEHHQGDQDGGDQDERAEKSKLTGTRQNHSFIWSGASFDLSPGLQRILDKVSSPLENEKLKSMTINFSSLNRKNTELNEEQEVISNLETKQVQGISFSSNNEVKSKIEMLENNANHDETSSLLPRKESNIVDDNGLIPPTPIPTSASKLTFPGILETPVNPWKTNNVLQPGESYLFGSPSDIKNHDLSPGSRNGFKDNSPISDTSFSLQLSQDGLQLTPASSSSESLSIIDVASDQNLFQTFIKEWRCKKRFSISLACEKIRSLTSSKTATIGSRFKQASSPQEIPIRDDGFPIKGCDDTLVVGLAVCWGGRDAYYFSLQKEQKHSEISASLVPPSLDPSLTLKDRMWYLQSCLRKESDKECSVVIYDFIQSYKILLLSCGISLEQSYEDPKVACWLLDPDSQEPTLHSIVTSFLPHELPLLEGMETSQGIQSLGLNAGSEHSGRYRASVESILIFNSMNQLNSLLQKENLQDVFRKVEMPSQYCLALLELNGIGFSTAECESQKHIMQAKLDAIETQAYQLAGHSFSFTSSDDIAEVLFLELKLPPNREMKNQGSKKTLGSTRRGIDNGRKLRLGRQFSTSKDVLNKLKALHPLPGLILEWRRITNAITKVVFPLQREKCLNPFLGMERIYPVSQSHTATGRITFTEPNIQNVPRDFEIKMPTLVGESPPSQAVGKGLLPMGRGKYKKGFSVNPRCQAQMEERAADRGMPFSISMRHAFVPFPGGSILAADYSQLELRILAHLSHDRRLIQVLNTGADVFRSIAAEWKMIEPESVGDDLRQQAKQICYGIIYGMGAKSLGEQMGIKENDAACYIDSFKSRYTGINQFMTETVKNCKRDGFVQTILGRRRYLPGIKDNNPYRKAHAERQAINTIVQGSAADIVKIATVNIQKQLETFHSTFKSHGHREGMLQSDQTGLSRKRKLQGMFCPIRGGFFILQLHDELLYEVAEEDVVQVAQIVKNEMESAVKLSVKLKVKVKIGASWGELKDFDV
Mode: inhibitor
Concentration: concentration not given
Setting: average
Together with: without ssDNA
For `Cc1ccc(NC(=O)CSc2ncc(S(=O)(=O)c3ccc(C(C)C)cc3)c(=O)[nH]2)cc1C`, the remaining activity was 84.7%.
For `CC(C)(C)c1ccc(S(=O)(=O)c2cnc(SCC(=O)Nc3ccc4c(c3)OCCO4)[nH]c2=O)cc1`, the remaining activity was 70.6%.
For `CCCCCCCC/C=C\CCCCCCCC(=O)O`, the remaining activity was 99.4%.
`CCCCCCCCCCC/C=C\C(C)(C)/C=C\CCCC(=O)O` gave a remaining activity of 99.7%.
With `O=C(Nc1cc2cc[nH]c2cn1)c1ccccc1` the remaining activity was 53.3%.

A few entries again (study 1):
With `Cc1nc(-c2ccccc2)c(-c2ccncc2)o1` the remaining activity was 91.4%.
`Nc1ncnc2n[nH]c(Nc3ccc(F)cc3)c12` has a remaining activity of 87%.
With `Cn1sc(=O)n(Cc2ccccc2)c1=O` the remaining activity was 103%.
With `N#CC(C#N)=C(N)/C(C#N)=C/c1ccc(O)cc1` the remaining activity was 94.3%.
The remaining activity of `COc1cc2nccc(Oc3ccc(NC(=S)NC(=O)c4ccccc4C)cc3)c2cc1OC` is reported as 91%.
